Experimental data from different studies.
Each numbered part is a random draw from the data of one study; scales do not carry over between parts. “And” joins repeats or separate records; there may be more than shown.
Sequence of UniProt P10721 (whole entry, looked up): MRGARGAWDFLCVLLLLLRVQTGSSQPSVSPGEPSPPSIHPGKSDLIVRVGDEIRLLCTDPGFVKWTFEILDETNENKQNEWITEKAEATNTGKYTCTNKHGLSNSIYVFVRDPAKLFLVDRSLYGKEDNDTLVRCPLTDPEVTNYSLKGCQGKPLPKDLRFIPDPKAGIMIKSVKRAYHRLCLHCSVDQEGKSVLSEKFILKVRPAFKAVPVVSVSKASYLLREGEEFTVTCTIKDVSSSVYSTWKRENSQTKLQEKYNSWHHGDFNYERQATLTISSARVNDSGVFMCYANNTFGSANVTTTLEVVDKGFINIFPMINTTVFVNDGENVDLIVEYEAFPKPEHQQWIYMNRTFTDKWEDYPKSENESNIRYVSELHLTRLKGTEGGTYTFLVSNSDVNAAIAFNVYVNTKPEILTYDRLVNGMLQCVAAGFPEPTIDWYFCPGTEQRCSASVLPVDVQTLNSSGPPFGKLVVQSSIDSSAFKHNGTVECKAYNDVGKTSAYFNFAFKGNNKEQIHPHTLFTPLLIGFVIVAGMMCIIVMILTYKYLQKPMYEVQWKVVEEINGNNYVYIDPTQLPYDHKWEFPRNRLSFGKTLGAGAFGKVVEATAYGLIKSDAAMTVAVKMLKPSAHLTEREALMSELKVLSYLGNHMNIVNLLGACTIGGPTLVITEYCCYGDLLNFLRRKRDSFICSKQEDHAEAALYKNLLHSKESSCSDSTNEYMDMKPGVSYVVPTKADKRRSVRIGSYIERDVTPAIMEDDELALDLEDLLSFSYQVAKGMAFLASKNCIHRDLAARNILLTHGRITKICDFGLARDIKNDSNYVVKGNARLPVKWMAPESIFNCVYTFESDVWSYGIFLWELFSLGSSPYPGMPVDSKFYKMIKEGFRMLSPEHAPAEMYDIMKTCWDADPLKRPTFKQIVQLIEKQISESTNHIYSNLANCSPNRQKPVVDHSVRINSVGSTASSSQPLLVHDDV
Sequence of UniProt P51451 (whole entry, looked up): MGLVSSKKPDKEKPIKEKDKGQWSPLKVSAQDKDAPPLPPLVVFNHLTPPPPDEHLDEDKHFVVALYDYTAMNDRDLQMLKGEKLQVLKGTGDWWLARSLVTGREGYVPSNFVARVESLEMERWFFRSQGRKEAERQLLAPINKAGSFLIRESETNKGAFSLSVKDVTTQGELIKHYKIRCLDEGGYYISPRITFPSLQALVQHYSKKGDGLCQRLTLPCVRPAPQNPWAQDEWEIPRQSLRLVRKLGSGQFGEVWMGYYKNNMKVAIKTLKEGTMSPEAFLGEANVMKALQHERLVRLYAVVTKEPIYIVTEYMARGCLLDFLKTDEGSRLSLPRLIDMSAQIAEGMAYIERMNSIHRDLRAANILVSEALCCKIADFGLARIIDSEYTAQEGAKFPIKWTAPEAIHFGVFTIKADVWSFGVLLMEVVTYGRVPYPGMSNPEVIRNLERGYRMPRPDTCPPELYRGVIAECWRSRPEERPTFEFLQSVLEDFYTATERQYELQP
Sequence of UniProt Q9NWZ3 (whole entry, looked up): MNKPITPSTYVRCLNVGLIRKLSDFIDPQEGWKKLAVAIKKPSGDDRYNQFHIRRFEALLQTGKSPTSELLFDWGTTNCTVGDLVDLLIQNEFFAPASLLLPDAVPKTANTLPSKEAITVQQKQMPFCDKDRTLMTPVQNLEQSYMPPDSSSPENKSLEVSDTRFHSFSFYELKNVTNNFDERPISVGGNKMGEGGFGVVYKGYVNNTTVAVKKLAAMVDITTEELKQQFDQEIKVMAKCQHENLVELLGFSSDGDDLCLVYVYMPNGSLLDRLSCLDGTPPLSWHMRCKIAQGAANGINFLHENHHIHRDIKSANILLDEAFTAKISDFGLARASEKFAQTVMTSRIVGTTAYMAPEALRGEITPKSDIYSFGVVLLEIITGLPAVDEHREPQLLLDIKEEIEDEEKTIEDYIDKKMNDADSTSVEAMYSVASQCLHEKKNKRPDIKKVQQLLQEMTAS
Sequence of UniProt P54764 (whole entry, looked up): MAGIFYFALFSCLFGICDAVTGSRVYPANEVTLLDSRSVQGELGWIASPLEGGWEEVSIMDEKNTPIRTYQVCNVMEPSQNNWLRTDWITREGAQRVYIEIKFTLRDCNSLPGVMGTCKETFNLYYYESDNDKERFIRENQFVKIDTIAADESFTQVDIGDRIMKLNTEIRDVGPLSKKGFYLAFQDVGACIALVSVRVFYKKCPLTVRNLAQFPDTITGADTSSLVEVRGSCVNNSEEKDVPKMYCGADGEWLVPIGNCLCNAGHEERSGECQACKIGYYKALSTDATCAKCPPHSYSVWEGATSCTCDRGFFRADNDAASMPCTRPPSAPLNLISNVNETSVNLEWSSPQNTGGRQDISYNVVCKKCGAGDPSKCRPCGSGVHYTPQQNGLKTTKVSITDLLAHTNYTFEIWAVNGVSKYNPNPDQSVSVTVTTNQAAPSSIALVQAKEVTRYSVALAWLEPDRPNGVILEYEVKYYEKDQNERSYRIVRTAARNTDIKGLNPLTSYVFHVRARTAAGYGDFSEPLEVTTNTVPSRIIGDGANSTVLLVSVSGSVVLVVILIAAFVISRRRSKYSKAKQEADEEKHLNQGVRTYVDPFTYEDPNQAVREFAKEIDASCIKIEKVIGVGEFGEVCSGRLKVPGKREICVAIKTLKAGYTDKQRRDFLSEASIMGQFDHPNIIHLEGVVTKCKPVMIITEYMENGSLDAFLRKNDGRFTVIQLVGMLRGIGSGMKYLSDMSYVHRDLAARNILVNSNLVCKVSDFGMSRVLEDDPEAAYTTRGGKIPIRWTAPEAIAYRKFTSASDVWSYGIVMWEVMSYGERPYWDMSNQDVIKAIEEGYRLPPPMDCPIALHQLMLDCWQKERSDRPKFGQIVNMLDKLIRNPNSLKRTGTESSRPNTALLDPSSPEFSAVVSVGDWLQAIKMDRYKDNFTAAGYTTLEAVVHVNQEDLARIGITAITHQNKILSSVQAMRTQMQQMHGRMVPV
Sequence of UniProt O60331 (whole entry, looked up): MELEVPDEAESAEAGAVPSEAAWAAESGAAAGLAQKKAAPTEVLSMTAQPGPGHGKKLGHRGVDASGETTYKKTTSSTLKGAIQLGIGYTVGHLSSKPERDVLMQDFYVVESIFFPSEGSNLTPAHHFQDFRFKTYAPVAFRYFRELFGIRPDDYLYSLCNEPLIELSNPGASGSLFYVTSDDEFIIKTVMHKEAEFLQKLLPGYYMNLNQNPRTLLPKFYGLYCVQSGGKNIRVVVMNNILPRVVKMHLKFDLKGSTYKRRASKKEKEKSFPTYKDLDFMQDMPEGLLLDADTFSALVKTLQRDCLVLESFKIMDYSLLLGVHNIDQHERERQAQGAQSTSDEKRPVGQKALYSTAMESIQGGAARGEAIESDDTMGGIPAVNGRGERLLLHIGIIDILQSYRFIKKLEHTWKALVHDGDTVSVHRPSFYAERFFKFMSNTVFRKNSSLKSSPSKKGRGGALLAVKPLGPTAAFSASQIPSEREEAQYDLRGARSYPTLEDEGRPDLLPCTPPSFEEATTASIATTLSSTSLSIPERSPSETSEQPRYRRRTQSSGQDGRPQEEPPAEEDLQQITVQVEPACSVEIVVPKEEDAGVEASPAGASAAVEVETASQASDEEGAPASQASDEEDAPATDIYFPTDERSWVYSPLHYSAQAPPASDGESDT
Sequence of UniProt P51956 (whole entry, looked up): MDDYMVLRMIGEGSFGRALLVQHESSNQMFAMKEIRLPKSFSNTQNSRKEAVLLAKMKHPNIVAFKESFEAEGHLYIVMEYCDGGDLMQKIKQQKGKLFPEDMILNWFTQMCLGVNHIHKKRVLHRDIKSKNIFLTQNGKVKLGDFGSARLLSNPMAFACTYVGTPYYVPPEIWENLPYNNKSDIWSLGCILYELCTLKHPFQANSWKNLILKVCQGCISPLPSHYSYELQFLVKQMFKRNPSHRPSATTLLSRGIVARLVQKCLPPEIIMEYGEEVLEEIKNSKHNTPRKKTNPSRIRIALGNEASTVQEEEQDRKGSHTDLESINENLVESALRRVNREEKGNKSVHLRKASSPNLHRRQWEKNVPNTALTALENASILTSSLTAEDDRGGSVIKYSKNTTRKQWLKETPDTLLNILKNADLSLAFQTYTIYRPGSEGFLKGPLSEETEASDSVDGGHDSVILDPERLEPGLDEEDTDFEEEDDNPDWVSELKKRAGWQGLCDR

Study 1 — SMILES: O=c1[nH]c(=S)n(C[C@H]2CCCO2)c2nc[nH]c12; read-out: enzyme activity
MPO: Myeloperoxidase (MPO, Homo sapiens, UniProt P05164)
Sequence of UniProt P05164 (whole entry, looked up): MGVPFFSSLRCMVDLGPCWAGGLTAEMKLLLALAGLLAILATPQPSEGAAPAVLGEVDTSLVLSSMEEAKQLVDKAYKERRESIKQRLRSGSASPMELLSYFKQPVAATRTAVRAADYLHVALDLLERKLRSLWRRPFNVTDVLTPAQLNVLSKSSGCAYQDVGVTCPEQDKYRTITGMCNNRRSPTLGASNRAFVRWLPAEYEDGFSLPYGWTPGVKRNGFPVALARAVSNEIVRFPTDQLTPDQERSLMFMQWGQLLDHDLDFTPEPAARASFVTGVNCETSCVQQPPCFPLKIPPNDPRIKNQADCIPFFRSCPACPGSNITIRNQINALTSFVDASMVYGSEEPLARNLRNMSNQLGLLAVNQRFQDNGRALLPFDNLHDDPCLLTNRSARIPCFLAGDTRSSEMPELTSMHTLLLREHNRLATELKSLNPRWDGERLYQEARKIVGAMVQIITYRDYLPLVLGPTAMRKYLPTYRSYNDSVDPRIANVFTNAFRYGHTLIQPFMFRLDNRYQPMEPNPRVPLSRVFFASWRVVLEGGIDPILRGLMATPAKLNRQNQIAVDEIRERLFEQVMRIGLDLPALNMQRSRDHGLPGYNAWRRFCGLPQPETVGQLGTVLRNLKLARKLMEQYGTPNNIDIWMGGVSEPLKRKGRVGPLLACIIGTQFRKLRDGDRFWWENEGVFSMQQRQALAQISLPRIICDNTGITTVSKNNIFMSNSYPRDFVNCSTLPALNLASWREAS
target	action	technique	tested at	inhibition
MPO	inhibitor	fluorescence	15 µM	99.5%
AOC3 (Homo sapiens, UniProt Q16853)		Amplex Red H2O2 production	0.0137 µM	8.82%
MPO			0.0069 µM	8.17% and 13.3% and 4.34% and 2.5% and 32.9% and 9.69% and 1.73%
MPO			0.0137 µM	4.24% and 10.6% and 19.6% and 0.109% and 1.52% and 14.6%

Study 2 — cell line: MDA-MB-231; technique: qRT-PCR; time: 6 h; notes: unit not given
SMILES: CCN(CC)CC(=O)N1CCN(c2nc(NCc3nc4cc(Cl)c(Cl)cc4[nH]3)c3ncn(CC)c3n2)CC1
refers to	tested at	reference	mRNA level
FANCI	0.05 µM	DMSO	0.402 and 0.455 and 0.449
FANCD2	50 nM	untreated	0.511
BRCA1	50 nM	untreated	0.299
SMARCC2	50 nM	untreated	0.62
BRCA1	0.05 µM	DMSO	0.388 and 0.126 and 0.383
RAD51	0.05 µM	DMSO	0.288 and 0.325 and 0.271
SMARCC2	0.05 µM	DMSO	0.632 and 0.617 and 0.611
ATM	50 nM	untreated	0.404

Study 3 — cell line: U-87 MG; tested at: concentration not given; reference: DMSO
Structure (SMILES): CCN1/C(=C/C=C2\CCCC(/C=C/C3=[N+](CC)c4ccccc4C3(C)C)=C2NCCCCCCCCN2CCC(Nc3nc4ccccc4n3Cc3ccc(F)cc3)CC2)C(C)(C)c2ccccc21
refers to	log2 fold change
LGR4 mRNA	-1.42
CLCN4 mRNA	-1.08
CBX2 mRNA	-1.42
AMMECR1L mRNA	0.887
TIMP1 mRNA	1.56
ARHGAP22 mRNA	-1.58
ASIC1 mRNA	-2.34
RORA mRNA	1.16
KIF21B mRNA	-1.39
BOC mRNA	-1.5
LDHA mRNA	-1.12
ZC3H12C mRNA	2.07
GCNT1 mRNA	-1.75
MAB21L1 mRNA	-2.46
PTPRJ mRNA	-1.04
EEPD1 mRNA	-1.78

Study 4 — tested at: 1 µM
Structure (SMILES): CCC1(c2cccc(-c3cn(C)nc3C)c2)C2=C(Nc3n[nH]cc31)C(F)C(C)(C)CC2=O (single isomer, unassigned)
target	read-out	technique	reference	remaining binding [%]
PIK3CA (Homo sapiens, UniProt P42336, C420R)	binding	competition with immobilised ligand		85
EPHA4 (Homo sapiens, UniProt P54764)	kinase binding	KINOMEscan	DMSO control	86
AKT3 (Homo sapiens, UniProt Q9Y243)	kinase binding	KINOMEscan	DMSO control	92
NEK3 (Homo sapiens, UniProt P51956)	binding	competition with immobilised ligand		93
CDK19 (Homo sapiens, UniProt Q9BWU1)		KINOMEscan		100
DAPK2 (Homo sapiens, UniProt Q9UIK4)	kinase binding	KINOMEscan	DMSO control	100
MAP3K11 (Homo sapiens, UniProt Q16584)	binding	competition with immobilised ligand		100
RIOK1 (Homo sapiens, UniProt Q9BRS2)	kinase binding	KINOMEscan	DMSO control	100
IRAK4 (Homo sapiens, UniProt Q9NWZ3)	binding	competition with immobilised ligand		99
BLK (Homo sapiens, UniProt P51451)	kinase binding	KINOMEscan	DMSO control	90
TRPM6 (Homo sapiens, UniProt Q9BX84)	kinase binding	KINOMEscan	DMSO control	97
SIK2 (Homo sapiens, UniProt Q9H0K1)	binding	competition with immobilised ligand		100
COQ8A (Homo sapiens, UniProt Q8NI60)	kinase binding	KINOMEscan	DMSO control	100
KIT (Homo sapiens, UniProt P10721)	kinase binding	KINOMEscan	DMSO control	100
PIP5K1C (Homo sapiens, UniProt O60331)	kinase binding	KINOMEscan	DMSO control	100
MAP4K5 (Homo sapiens, UniProt Q9Y4K4)	kinase binding	KINOMEscan	DMSO control	100
EGFR (Homo sapiens, UniProt P00533, L858R)	binding	competition with immobilised ligand		99
MAP3K12 (Homo sapiens, UniProt Q12852)	kinase binding	KINOMEscan	DMSO control	100
Mast/stem cell growth factor receptor Kit, autoinhibited (KIT, Homo sapiens, UniProt P10721)	binding	competition with immobilised ligand		90

Repeated from above (study 3):
refers to	log2 fold change
CBX2 mRNA	-1.42
AMMECR1L mRNA	0.887
TIMP1 mRNA	1.56
ARHGAP22 mRNA	-1.58
ASIC1 mRNA	-2.34
RORA mRNA	1.16
